Experimental data collected from several papers.
Compare with care: the assays were run in different laboratories. ± marks the error that the study gave.
Target: Urease (Canavalia ensiformis, UniProt P07374)
UniProt P07374, sequence (whole entry, looked up): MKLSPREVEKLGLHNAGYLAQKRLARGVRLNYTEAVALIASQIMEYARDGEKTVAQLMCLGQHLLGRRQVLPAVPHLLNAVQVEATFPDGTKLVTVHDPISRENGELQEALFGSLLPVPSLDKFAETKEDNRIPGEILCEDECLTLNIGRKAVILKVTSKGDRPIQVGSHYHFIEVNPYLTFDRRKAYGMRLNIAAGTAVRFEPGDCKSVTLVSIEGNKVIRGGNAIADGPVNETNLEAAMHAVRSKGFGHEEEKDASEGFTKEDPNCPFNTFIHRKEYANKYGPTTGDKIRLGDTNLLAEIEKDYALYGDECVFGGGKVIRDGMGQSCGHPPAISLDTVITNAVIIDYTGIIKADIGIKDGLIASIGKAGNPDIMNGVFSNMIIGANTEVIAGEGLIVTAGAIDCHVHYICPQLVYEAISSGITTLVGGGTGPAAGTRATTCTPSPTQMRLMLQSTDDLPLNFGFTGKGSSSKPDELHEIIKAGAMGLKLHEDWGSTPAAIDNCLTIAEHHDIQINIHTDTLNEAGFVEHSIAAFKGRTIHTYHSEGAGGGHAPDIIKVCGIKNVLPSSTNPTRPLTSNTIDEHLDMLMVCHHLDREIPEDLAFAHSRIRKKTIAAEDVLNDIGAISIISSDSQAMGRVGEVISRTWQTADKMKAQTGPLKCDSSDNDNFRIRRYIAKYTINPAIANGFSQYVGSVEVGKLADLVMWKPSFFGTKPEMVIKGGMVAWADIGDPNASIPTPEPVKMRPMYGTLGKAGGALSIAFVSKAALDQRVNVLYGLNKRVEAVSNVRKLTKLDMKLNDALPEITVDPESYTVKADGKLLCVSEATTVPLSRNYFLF
Action: inhibitor

COc1ccc(OCc2nn3c(-c4cccc(Br)c4)nnc3s2)cc1
IC50 (enzyme activity): 28.4 µM

Cc1ccc2[nH]c(C(C)O)nc2c1 (racemic)
IC50 (enzyme activity, absorbance): 36 µM

COC(=O)C1=C(C)NC(=O)CC1c1ccc(Cl)cc1Cl (stereo not shown)
IC50 (enzyme activity, absorbance; pH 7.4): 82 µM

COc1cccc(/C=N/NC(=O)c2ccc(C(=O)N/N=C/c3cccc(OC)c3O)cc2)c1O
IC50 (enzyme activity): 65.7 µM

COc1cc(-c2nc3cc(C(=O)N4CCN(c5ccccc5)CC4)ccc3[nH]2)ccc1OCC(=O)NCc1ccccc1
IC50 (pH 7.4): 2.99 ± 0.02 µM

CC(O)c1nc2ccc(Cl)cc2[nH]1 (racemic)
IC50 (enzyme activity, absorbance): 38 µM

COc1cc(/C=N/NC(=O)c2ccc(C(=O)N/N=C/c3cc(OC)c(OC)c(OC)c3)cc2)cc(OC)c1OC
IC50 (enzyme activity): 74.4 µM

COC(=O)C1=C(C)NC(=O)CC1c1ccccc1OC (stereo not shown)
IC50 (enzyme activity, absorbance; pH 7.4): 158 µM

FC(F)(F)c1cccc(NC(=S)N2CCc3ccccc3C2)c1
IC50 (enzyme activity, absorbance): 26.5 µM

COC(=O)C1=C(C)NC(=O)CC1c1cccc([N+](=O)[O-])c1 (stereo not shown)
IC50 (enzyme activity, absorbance; pH 7.4): 48.8 µM

COc1ccc(OCc2nn3c(-c4ccc(OC)cc4)nnc3s2)cc1
IC50 (enzyme activity): 8.14 µM

COC(=O)C1=C(C)NC(=O)CC1c1ccccc1 (stereo not shown)
IC50 (enzyme activity, absorbance; pH 7.4): 131 µM

Brc1cccc(-c2nnc3n2N=C(c2ccc(-c4ccccc4)cc2)CS3)c1
IC50 (enzyme activity): 5.79 µM

Repeated from above:
Brc1cccc(-c2nnc3n2N=C(c2ccc(-c4ccccc4)cc2)CS3)c1
IC50 (enzyme activity): 5.79 µM
